Results gathered from unrelated publications.
Parts stem from different laboratories: compare values within a part only.

Sample 1 — technique: universal PBM; form: double-stranded DNA, one strand shown; medium: in vitro; tested at: 600 nM; direction: higher = stronger binding; measurement: E-score
Target: Sal-like protein 4, full length isoform A (SALL4, Homo sapiens, UniProt Q9UJQ4, residues 1-1053)
Sequence of UniProt Q9UJQ4 (whole entry, looked up): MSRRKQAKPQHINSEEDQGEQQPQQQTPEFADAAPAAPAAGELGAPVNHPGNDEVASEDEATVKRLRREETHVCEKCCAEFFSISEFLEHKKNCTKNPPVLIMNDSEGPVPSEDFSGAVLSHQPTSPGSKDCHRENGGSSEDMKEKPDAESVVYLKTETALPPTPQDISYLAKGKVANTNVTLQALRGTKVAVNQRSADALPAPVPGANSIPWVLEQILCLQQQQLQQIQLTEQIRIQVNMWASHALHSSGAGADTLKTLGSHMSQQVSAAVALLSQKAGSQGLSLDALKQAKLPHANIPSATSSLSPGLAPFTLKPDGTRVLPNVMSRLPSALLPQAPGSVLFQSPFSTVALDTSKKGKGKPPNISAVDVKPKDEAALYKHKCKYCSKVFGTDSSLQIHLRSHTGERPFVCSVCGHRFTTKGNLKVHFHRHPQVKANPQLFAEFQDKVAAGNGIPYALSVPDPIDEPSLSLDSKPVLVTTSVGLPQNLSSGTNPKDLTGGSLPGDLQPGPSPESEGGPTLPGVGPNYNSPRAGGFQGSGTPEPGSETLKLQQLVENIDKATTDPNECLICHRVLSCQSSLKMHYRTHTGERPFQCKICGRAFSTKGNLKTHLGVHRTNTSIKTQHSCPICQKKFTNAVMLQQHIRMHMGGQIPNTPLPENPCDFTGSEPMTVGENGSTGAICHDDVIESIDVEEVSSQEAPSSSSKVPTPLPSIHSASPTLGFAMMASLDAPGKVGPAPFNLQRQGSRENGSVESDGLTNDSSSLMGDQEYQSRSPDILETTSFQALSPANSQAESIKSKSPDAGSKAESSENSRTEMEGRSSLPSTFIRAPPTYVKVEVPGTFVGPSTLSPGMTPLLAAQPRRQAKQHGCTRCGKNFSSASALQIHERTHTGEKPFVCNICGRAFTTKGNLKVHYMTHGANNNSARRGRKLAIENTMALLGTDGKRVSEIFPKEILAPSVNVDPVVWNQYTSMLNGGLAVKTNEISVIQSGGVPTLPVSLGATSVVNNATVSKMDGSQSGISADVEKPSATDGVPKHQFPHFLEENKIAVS
Notes: 8-mer, flanks averaged, mean of replicates
Sequence = CACTAAAA; value = 0.118
Sequence = CTCAGAAG; value = -0.176
Sequence = CTCAAAGA; value = -0.0593
Sequence = CGGTCTGA; value = -0.152
Sequence = CAGGTATA; value = 0.118
Sequence = ATTCGCGA; value = 0.0622
Sequence = GTCATTCA; value = 0.0992
Sequence = AATCCCGT; value = -0.129
Sequence = ACCAAACC; value = -0.0716
Sequence = AGGAAGGG; value = -0.093
Sequence = CCATCGCA; value = -0.116
Sequence = TAAAGTGA; value = 0.283
Sequence = ATAGGTTG; value = -0.012
Sequence = ACAAATGG; value = 0.0678
Sequence = GAATAACC; value = 0.133

Sample 2 — technique: RNA Bind-n-Seq; form: RNA; medium: in vitro; tested at: 365 nM; reference: no-protein control; direction: higher = stronger binding; measurement: RBNS enrichment (R)
Target: RNA binding protein fox-1 homolog 2, RRM domain, GST-SBP tag (RBFOX2, Homo sapiens, UniProt O43251-10, residues 100-194)
Notes: natural RNA segment, single round, ends assumed
Constant ends, left off below: GGGAGUUCUACAGUCCGACGAUC … UGGAAUUCUCGGGUGCCAA
Target sequence (chain): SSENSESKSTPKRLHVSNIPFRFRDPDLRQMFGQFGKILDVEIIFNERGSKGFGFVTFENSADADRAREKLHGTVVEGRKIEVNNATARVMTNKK
Sequence = GUCAUACCGUGACAGCCCGCAGGAUCAGGUGACUUCUAGCAGAGACCCUGGUUUUUUUCCUGUGCCCACUCCGGCUUGUCCUCAUCUCUACCCAUCCCCUGAUGCCCAGG; value = 0.382
Sequence = UGUUUGAAGGAAAGAAUAUGGAUUUUUCAUGUCUUGAGGUUUUGUUCAUGCCCCCUUUGACUGAUCAGUGUGAUAAGGACUUUAGGAAAAAAAGCAUGUAUGUUUUUUAC; value = 14.3
Sequence = GGCAGUGCGUGGAAAGGCCGGGGAGGUGCAGAAACCAGAGCCCAGGGCAAUGGUGUCUGUCCAGCCCCUCCCUCUGUCCCUGUGCUCCAAGCUGCCCCCGGCUGCAGCCC; value = 0.509
Sequence = CCUCUGUCGGGAUUGUAUCUCGACAUCCCUGUCGCGUUUUUCUUAGCUGGAGUGUGUGCUGCCUUUCAGGUACAACUUUUAUGUAAUAAAAGCCAGAGCAUUAAGCUUAC; value = 0.304
Sequence = UGACUUUUUUUUAAUGAAGGGAAUAAUUGCCAAGUACUUAAAUCUACCUGAGGUACACUUUUAAACCUCAUCUUCUAUUUCUUCCCUCUCUUCUGCAAAUGAACAAAACA; value = 0.422
Sequence = UUAUAUUUCUCGUAUUUAAUAUGGGUGAACACCAACUUUUAUUUGGAAUAAUAAUUUUCCUCCUAAACAAAAACACAUUGAGUUUAAGUCUCUGACUCUUGCCUUUCCAC; value = 0.495
Sequence = CUUCAGAAGUUUGCUUCUUAUGGUAUAAUAAAGUAUGGAAGAAUAUUGAGUAUAUGUUUACUCUGGGCCUGGGAGAACUUAACUUUCUAGAGCAGUUUGUUGACUUGUGU; value = 0.695
Sequence = AGCCUCACCACCAUGCUAACACUGAGCAUGGUGAGGAGGAGGAAGCUUUGGCUAGCUAAACAUGUUUAAUAAGGCCAUAAAAACUGAGAAAGAAAAACAUUCAACUUUAG; value = 0.337
Sequence = GGACCUGGGGAAGGGAUGCUGAGACACAAGCAGGUCUUCUUAGCUCCAUGUUGGGAGAUGUUGGGGUAAGCAAUGGAGGCUAUAUCCUCAAGAGCUGUCACAGACAAGUG; value = 0.392
Sequence = GGGCUCAAGCCCCCCGGGACCGCAAAGACCCCUAGCAGCAUGUCCCAGCCUGGAGCCACACCUUCUGAGGCCCCAGCCCAGACUCAUGACGCGGAGGGCAGACAGGCCGC; value = 2.05

Sample 3 — technique: aptamer microarray, sandwich; form: DNA with 2'F-ANA; medium: in vitro; tested at: 200 nM; added: Cy3 exosite-II aptamer, 400 nM; direction: higher = stronger binding; measurement: mean fluorescence intensity; sequence: GGTTGGTGTGGTTGG
Target: Prothrombin, mature alpha-thrombin (F2, Homo sapiens, UniProt P00734)
Notes: whole 15-mer aptamer, many near background
Modification = 2'F-ANA at 3 7 9 10 14; value = 463 a.u.
Modification = 2'F-ANA at 1 3 9 10 11 14 15; value = 58.7 a.u.
Modification = 2'F-ANA at 1 5 7 8 9 10 14 15; value = 131 a.u.
Modification = 2'F-ANA at 1 2 3 5 7 10 11 14; value = 55.5 a.u.
Modification = 2'F-ANA at 1 2 4 5 7 9 13; value = 47.4 a.u.
Modification = 2'F-ANA at 3 4 6 7 8 9 13 14; value = 238 a.u.
Modification = 2'F-ANA at 1 3 5 6 8 9 12 13; value = 84.2 a.u.
Modification = 2'F-ANA at 2 3 5 9 11 12 13 15; value = 120 a.u.
Modification = 2'F-ANA at 1 2 3 4 5 6 7 8 11 13 15; value = 58.8 a.u.
Modification = 2'F-ANA at 1 3 5 8 9 13; value = 52.6 a.u.
Modification = 2'F-ANA at 4 5 7 10 11 12 13 14; value = 42.7 a.u.
Modification = 2'F-ANA at 1 4 5 7 8 9 12 13 15; value = 73.6 a.u.
Modification = 2'F-ANA at 4 9 10 11 13 14 15; value = 53.6 a.u.
Modification = 2'F-ANA at 1 3 4 9 13 14 15; value = 103 a.u.
Modification = 2'F-ANA at 1 2 3 6 7 9 10 11 12; value = 72.9 a.u.
Modification = 2'F-ANA at 1 2 4 6 7 8 10 12; value = 71.7 a.u.

Further values, each from its own experiment
Substance = PhoQ, residues 284 288 289 292 302 303 TYGVAM; target = PhoP, residues 12 14 15 18 19 AQCLL (Escherichia coli, UniProt P23836); test = Sort-seq, measured: YFP reporter; test system = E. coli; setting = PhoQ-PhoP variant library, added: 10 µM Mg2+; scale = reference: high Mg2+ state, higher = stronger signaling; measurement = fold induction; value = 0.967

For quick reference, copied from above (sample 3):
Modification = 2'F-ANA at 3 7 9 10 14; value = 463 a.u.
Modification = 2'F-ANA at 1 2 4 5 7 9 13; value = 47.4 a.u.
Modification = 2'F-ANA at 1 2 3 6 7 9 10 11 12; value = 72.9 a.u.
Modification = 2'F-ANA at 1 3 5 8 9 13; value = 52.6 a.u.
